Measurements from different studies.
Each line is one published result; not all experiments were run side by side. Numbers after ± are the reported error. Non-standard residues stand in square brackets, D forms with d. Square brackets hold non-standard residues; d marks the D form. Primed or numbered codes have the meaning given here. Where no end group is shown, it is not given here. Ends that are not written are not given here. No end group written: not given here. * marks the point of attachment. *: point of attachment.
RPA1: RPA1 1-120 (Homo sapiens, UniProt P27694)
UniProt P27694, sequence (whole entry, looked up): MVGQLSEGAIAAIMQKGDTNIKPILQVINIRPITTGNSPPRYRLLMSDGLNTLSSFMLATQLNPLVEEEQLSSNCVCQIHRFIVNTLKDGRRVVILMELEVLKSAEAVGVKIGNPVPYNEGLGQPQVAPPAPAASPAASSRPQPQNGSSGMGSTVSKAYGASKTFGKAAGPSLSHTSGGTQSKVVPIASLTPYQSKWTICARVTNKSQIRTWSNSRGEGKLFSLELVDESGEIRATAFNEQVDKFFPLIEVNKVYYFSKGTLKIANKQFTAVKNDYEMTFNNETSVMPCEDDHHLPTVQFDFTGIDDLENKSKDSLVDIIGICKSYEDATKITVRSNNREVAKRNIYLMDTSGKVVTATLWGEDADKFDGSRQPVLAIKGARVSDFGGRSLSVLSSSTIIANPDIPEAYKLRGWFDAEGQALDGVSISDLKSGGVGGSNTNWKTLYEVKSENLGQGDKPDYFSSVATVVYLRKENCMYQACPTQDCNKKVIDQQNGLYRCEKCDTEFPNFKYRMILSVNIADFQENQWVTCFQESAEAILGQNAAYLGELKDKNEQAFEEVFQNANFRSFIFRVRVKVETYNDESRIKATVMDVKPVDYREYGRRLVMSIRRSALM
T1: BCR GAP domain; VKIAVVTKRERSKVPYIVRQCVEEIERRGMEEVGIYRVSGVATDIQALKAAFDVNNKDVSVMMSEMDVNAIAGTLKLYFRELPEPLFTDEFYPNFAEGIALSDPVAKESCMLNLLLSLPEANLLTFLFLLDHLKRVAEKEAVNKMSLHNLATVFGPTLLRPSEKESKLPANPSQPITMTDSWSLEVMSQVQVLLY
B1: Tiam1 PH-CC-Ex domain; chain AAQGTVRKAGALAVKNFLVHKKNKKVESATRRKWKHYWVSLKGCTLFFYETDGRSGIDHNSVPKHAVWVENSIVQAVPEHPKKDFVFCLSNSLGDAFLFQTTSQTELENWITAIHSACAAAVARHHHKEDTLRLLKSEIKKLEQKIDMDEKMKKMGEMQLSSVTDSKKKKTILDQIFVWEQNLEQFQMDLFRFRCYLASLQGGELPNPKRLLAFASRPTKVAMGRLGIFSVSSFHALVAARTGEIGVRRRTQAMSRSASKRRSRFSSLWGLDTT
B2: CDH1 residues 1-221 (Homo sapiens); chain DWVIPPISCPENEKGPFPKNLVQIKSNKDKEGKVFYSITGQGADTPPVGVFIIERETGWLKVTEPLDRERIATYTLFSHAVSSNGNAVEDPMEILITVTDQNDNKPEFTQEVFKGSVMEGALPGTSVMEVTATDADDDVNTYNAAIAYTILSQDPELPDKNMFTINRNTGVISVVTTGLDRESFPTYTLVVQAADLQGEGLSTTATAVITVTDTNDNPPIF
B3: adrenodoxin (Bos taurus, UniProt P00257); RED dye on amines; sequence looked up; chain SSSEDKITVHFINRDGETLTTKGKIGDSLLDVVVQNNLDIDGFGACEGTLACSTCHLIFEQHIFEKLEAITDEENDMLDLAYGLTDRSRLGCQICLTKAMDNMTVRVPDAVSDARESIDMGMNSSKIE
B4: asprosin mature (Homo sapiens, UniProt P35555); sequence looked up; chain STNETDASNIEDQSETEANVSLASWDVEKTAIFAFNISHVSNKVRILELLPALTTLTNHNRYLIESGNEDGFFKINQKEGISYLHFTKKKPVAGTYSLQISSTPLYKKKELNQLEDKYDKDYLSGELGDNLKMKIQVLLH
B5: FGA/FGB/FGG 20-644 (Homo sapiens); chain 1 ADSGEGDFLAEGGGVRGPRVVERHQSACKDSDWPFCSDEDWNYKCPSGCRMKGLIDEVNQDFTNRINKLKNSLFEYQKNNKDSHSLTTNIMEILRGDFSSANNRDNTYNRVSEDLRSRIEVLKRKVIEKVQHIQLLQKNVRAQLVDMKRLEVDIDIKIRSCRGSCSRALAREVDLKDYEDQQKQLEQVIAKDLLPSRDRQHLPLIKMKPVPDLVPGNFKSQLQKVPPEWKALTDMPQMRMELERPGGNEITRGGSTSYGTGSETESPRNPSSAGSWNSGSSGPGSTGNRNPGSSGTGGTATWKPGSSGPGSTGSWNSGSSGTGSTGNQNPGSPRPGSTGTWNPGSSERGSAGHWTSESSVSGSTGQWHSESGSFRPDSPGSGNARPNNPDWGTFEEVSGNVSPGTRREYHTEKLVTSKGDKELRTGKEKVTSGSTTTTRRSCSKTVTKTVIGPDGHKEVTKEVVTSEDGSDCPEAMDLGTLSGIGTLDGFRHRHPDEAAFFDTASTGKTFPGFFSPMLGEFVSETESRGSESGIFTNTKESSSHHPGIAEFPSRGKSSSYSKQFTSSTSYNRGDSTFESKSYKMADEAGSEADHEGTHSTKRGHAKSRPVRGIHTSPLGKPSLSP; chain 2 QGVNDNEEGFFSARGHRPLDKKREEAPSLRPAPPPISGGGYRARPAKAAATQKKVERKAPDAGGCLHADPDLGVLCPTGCQLQEALLQQERPIRNSVDELNNNVEAVSQTSSSSFQYMYLLKDLWQKRQKQVKDNENVVNEYSSELEKHQLYIDETVNSNIPTNLRVLRSILENLRSKIQKLESDVSAQMEYCRTPCTVSCNIPVVSGKECEEIIRKGGETSEMYLIQPDSSVKPYRVYCDMNTENGGWTVIQNRQDGSVDFGRKWDPYKQGFGNVATNTDGKNYCGLPGEYWLGNDKISQLTRMGPTELLIEMEDWKGDKVKAHYGGFTVQNEANKYQISVNKYRGTAGNALMDGASQLMGENRTMTIHNGMFFSTYDRDNDGWLTSDPRKQCSKEDGGGWWYNRCHAANPNGRYYWGGQYTWDMAKHGTDDGVVWMNWKGSWYSMRKMSMKIRPFFPQQ; chain 3 YVATRDNCCILDERFGSYCPTTCGIADFLSTYQTKVDKDLQSLEDILHQVENKTSEVKQLIKAIQLTYNPDESSKPNMIDAATLKSRKMLEEIMKYEASILTHDSSIRYLQEIYNSNNQKIVNLKEKVAQLEAQCQEPCKDTVQIHDITGKDCQDIANKGAKQSGLYFIKPLKANQQFLVYCEIDGSGNGWTVFQKRLDGSVDFKKNWIQYKEGFGHLSPTGTTEFWLGNEKIHLISTQSAIPYALRVELEDWNGRTSTADYAMFKVGPEADKYRLTYAYFAGGDAGDAFDGFDFGDDPSDKFFTSHNGMQFSTWDNDNDKFEGNCAEQDGSGWWMNKCHAGHLNGVYYQGGTYSKASTPNGYDNGIIWATWKTRWYSMKKTTMKIIPFNRLTIGEGQQHHLGGAKQAGDV
B6: Nlgn2 43-612 (Rattus norvegicus, UniProt Q62888-1); sequence looked up; chain VVNTAYGRVRGVRRELNNEILGPVVQFLGVPYATPPLGARRFQPPEAPASWPGVRNATTLPPACPQNLHGALPAIMLPVWFTDNLEAAATYVQNQSEDCLYLNLYVPTEDGPLTKKRDEATLNPPDTDIRDSGKKPVMLFLHGGSYMEGTGNMFDGSVLAAYGNVIVATLNYRLGVLGFLSTGDQAAKGNYGLLDQIQALRWLSENIAHFGGDPERITIFGSGAGASCVNLLILSHHSEGLFQKAIAQSGTAISSWSVNYQPLKYTRLLAAKVGCDREDSTEAVECLRRKSSRELVDQDVQPARYHIAFGPVVDGDVVPDDPEILMQQGEFLNYDMLIGVNQGEGLKFVEDSAESEDGVSASAFDFTVSNFVDNLYGYPEGKDVLRETIKFMYTDWADRDNGEMRRKTLLALFTDHQWVAPAVATAKLHADYQSPVYFYTFYHHCQAEGRPEWADAAHGDELPYVFGVPMVGATDLFPCNFSKNDVMLSAVVMTYWTNFAKTGDPNQPVPQDTKFIHTKPNRFEEVVWSKFNSKEKQYLHIGLKPRVRDNYRANKVAFWLELVPHLHNLH
UniProt P06400, sequence (whole entry, unmodified, looked up): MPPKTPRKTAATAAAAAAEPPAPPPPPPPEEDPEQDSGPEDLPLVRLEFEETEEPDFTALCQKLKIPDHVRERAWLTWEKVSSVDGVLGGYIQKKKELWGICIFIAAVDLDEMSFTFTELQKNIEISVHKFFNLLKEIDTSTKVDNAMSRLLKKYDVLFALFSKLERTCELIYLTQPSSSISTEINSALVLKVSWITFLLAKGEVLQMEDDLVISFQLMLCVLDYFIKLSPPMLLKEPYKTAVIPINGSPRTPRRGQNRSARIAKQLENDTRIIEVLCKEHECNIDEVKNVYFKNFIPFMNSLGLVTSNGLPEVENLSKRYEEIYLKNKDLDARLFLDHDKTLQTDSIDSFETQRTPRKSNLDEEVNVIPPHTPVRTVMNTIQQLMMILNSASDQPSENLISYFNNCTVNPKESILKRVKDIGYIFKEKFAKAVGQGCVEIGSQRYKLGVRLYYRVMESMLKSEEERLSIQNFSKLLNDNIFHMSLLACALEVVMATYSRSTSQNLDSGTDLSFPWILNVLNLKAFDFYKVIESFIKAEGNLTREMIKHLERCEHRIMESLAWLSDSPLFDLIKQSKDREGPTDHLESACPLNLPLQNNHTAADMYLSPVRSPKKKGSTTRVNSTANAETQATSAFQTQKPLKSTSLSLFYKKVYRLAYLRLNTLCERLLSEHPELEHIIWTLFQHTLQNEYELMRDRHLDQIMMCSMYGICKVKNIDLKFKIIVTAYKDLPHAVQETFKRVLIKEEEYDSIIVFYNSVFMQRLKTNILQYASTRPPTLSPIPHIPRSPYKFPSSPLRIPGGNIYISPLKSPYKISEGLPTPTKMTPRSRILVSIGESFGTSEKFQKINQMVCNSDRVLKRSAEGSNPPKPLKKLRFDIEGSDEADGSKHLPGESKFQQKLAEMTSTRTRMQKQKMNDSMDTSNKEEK
UniProt P19099, sequence (whole entry, looked up): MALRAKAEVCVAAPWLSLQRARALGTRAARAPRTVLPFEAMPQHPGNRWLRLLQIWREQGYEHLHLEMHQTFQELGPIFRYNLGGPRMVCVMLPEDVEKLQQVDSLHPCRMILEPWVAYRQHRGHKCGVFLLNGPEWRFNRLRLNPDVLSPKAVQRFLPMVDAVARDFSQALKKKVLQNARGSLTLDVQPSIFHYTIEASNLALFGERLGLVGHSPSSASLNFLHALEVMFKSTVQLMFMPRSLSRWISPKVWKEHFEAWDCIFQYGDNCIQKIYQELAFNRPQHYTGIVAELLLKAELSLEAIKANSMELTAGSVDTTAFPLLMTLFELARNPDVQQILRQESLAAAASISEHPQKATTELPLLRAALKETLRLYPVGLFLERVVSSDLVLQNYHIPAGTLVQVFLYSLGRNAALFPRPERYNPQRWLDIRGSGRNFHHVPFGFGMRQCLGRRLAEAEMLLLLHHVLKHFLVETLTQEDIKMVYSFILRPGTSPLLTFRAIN
UniProt P29317, sequence (whole entry, looked up): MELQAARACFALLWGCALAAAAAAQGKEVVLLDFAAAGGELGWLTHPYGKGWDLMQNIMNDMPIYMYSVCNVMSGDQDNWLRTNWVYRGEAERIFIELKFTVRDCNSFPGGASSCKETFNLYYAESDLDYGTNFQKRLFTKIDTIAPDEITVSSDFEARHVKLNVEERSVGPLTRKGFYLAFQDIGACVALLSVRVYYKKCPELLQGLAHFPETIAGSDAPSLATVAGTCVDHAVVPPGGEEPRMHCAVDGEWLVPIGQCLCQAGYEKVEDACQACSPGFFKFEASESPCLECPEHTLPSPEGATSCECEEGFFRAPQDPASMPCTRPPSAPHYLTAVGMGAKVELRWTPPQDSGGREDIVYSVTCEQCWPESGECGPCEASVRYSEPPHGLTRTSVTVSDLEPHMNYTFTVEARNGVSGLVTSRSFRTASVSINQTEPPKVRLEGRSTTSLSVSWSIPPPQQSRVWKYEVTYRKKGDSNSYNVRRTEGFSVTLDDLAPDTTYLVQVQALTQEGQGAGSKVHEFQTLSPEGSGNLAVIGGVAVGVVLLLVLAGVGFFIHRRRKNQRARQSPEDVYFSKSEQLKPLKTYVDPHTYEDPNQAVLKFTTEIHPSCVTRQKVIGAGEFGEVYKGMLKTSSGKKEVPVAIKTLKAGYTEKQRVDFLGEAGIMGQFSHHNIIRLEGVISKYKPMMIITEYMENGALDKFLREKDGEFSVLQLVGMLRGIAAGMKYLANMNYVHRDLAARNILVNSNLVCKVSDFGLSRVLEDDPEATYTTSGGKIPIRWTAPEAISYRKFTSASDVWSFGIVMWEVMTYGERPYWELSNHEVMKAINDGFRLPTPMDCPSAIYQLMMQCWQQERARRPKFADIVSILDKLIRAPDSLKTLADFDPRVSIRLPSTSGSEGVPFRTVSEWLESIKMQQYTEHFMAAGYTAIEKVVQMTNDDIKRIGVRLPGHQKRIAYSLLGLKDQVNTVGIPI
UniProt P23468, sequence (whole entry, looked up): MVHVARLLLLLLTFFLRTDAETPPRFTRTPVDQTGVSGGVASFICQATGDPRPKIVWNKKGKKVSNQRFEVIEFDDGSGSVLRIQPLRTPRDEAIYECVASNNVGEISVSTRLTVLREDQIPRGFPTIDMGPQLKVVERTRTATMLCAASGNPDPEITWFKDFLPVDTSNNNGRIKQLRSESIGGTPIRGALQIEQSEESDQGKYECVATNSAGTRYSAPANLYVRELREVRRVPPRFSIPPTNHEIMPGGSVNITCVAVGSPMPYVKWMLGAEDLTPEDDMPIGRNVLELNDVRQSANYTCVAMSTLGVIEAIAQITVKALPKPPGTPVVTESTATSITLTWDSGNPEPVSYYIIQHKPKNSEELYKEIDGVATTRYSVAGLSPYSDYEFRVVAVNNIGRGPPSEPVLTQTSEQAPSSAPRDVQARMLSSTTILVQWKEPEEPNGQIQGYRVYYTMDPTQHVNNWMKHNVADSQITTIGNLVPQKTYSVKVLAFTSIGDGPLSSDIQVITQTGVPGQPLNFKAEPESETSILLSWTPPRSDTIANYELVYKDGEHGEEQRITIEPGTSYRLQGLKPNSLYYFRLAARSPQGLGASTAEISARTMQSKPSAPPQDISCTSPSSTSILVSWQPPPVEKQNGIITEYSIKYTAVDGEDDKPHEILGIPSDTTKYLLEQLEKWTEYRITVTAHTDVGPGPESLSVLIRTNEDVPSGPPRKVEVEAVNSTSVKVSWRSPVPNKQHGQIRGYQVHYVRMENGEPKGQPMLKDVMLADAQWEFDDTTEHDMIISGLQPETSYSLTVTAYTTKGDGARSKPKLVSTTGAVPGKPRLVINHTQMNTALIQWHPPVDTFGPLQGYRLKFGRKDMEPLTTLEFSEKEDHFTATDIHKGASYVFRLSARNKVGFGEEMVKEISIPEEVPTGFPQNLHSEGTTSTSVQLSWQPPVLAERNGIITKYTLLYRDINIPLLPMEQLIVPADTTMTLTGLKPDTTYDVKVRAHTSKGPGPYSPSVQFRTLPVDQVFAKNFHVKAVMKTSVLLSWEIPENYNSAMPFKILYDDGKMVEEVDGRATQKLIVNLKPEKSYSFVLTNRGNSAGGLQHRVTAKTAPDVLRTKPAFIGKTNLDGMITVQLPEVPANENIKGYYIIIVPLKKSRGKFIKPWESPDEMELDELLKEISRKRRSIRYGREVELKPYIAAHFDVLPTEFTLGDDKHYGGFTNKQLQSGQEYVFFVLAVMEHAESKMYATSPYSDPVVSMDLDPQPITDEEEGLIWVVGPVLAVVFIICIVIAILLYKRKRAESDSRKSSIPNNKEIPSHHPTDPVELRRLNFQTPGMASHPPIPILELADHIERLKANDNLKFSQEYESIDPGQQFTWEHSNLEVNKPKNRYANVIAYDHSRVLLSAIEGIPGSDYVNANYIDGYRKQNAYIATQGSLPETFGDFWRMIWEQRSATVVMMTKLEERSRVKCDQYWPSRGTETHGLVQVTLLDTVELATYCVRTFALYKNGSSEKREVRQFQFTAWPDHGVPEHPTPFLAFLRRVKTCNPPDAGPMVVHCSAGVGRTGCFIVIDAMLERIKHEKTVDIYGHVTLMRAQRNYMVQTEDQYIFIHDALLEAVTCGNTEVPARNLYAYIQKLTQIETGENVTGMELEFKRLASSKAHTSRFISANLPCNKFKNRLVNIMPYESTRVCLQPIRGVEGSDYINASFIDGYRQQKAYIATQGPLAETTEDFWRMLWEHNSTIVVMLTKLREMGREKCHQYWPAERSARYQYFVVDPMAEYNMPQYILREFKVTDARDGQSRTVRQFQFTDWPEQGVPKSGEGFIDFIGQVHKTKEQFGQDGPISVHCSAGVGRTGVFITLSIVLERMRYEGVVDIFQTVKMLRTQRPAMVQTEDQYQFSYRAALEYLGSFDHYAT

| Molecule | partner | test | system | setting | Kd [µM] |
| --- | --- | --- | --- | --- | --- |
| SAYPDSVPMMS (designed peptide) | EPHA2 27-200 (Homo sapiens, UniProt P29317) | ITC | peptide | – | 9 |
| B1 (Tiam1 PH-CC-Ex domain) | T1, BCR GAP domain | BLI | – | – | 0.287 |
| B2 (CDH1 residues 1-221) | KLRG1 C-type lectin domain 75-186 (Homo sapiens, UniProt Q96E93) | SPR | – | equilibrium fit, Scatchard analysis | 100 |
| B3 (adrenodoxin) | CYP11B2 (Homo sapiens, UniProt P19099) | MST | – | pH 7.4, 25 °C, oxidized, single-site model | 0.006 |
| ETDKE[pY][pY]TVKD (JAK1 1029-1039; pY1034/pY1035; pY = N[C@@H](Cc1ccc(OP(=O)(O)O)cc1)C(=O)O) | PTPN6 243-530 C453S (Homo sapiens, UniProt P29350) | ITC | peptide | pH 8.0, 25 °C, NaCl 100 mM | 0.7 ± 0.1 |
| B4 (asprosin mature) | PTPRD extracellular domain 21-1265, RED-tris-NTA dye label (UniProt P23468) | MST | – | – | 0.0042 |
| B5 (FGA/FGB/FGG 20-644) | ITGA2B/ITGB3 heterodimer (Homo sapiens) | radioligand binding | platelets | apparent, without Ca2+ and Mg2+, with: ADP, Zn2+ 50 µM | 0.1 |
| Gphn E domain , monomeric | ARHGEF9 1-456, CB2-SH3+, FlAsH on tetra-cysteine motif (rat) | CFP lifetime FRET, fluorescence titration | – | pH 8, NaCl 250 mM | 44.1 |
| KVAK[pS]PKKAKAW (H1-5 168-178 (Homo sapiens); pS172; pS = N[C@@H](COP(=O)(O)O)C(=O)O) | PIN1 fragment (Homo sapiens) | NMR titration | peptide | apparent Kd, single-residue fits | 1600 |
| ATRIP fragment | RPA1 | competition with ATRIP probe, fluorescence polarisation | – | pH 7.5, NaCl 75 mM | 29 |
| GVVEVDAAV[pT]PEERHLSKMQQ (APP 659-679 (UniProt P05067-4); not fully specified; pT668; pT = C[C@@H](OP(=O)(O)O)[C@H](N)C(=O)O; sequence looked up) | PIN1 WW domain 1-53 (Homo sapiens, UniProt Q13526) | NMR titration | peptide | trans isomer | 26.9 |
| {Cy5.5″}-TNYLFSPNGPIARAWK(DOTA)-NH2 (peptide; N-terminal Cy5.5, C-terminal DOTA; Cy5.5″ = near-infrared fluorescent dye Cy5.5; DOTA = O=C(O)CN1CCN(CC(=O)O)CCN(CC(=O)*)CCN(CC(=O)O)CC1) | EPHB4 16-539 (Homo sapiens, UniProt P54760) | SPR | peptide | – | 0.00101 |
| {TMR}-QDDYLWGLEAGEGISDLFD (E2F2 409-428 (Homo sapiens); N-terminal TMR label; TMR = tetramethylrhodamine dye) | RB1 55-787 del245-267/del582-642, phosphorylated by Cdk2-CycA (UniProt P06400) | fluorescence polarisation | peptide | pH 8.0, NaCl 100 mM, two-site fit, with: E7 LxCxE peptide 10 µM | 0.031 |
| FCGRT/B2M (Homo sapiens) | F9/ALB FIX-albumin fusion, cleavable linker (Homo sapiens) | SPR | – | – | 0.164 |
| {FITC}-GFID[pS]D[pT]DVEEE-NH2 (MDC1 phosphopeptide; FITC N-terminus, pS5, pT7, C-terminal amide; FITC = O=C1OC2(c3ccc(O)cc3Oc3cc(O)ccc32)c2ccc(NC(=S)*)cc21; pS = N[C@@H](COP(=O)(O)O)C(=O)O; pT = C[C@@H](OP(=O)(O)O)[C@H](N)C(=O)O) | TOPBP1 641-746 K704A (Homo sapiens, UniProt Q92547) | fluorescence polarisation | peptide | NaCl 150 mM | 210 ± 50 |
| QTARK(Ac)STGG (histone H3 6-14 (Homo sapiens, UniProt P68431); also: biotinylated, site not given here; K9ac; sequence looked up) | YAF9 8-171 R114D (Saccharomyces cerevisiae, UniProt P53930) | fluorescence titration | peptide | pH 7.5, 25 °C, NaCl 150 mM | 22 |
| B6 (Nlgn2 43-612) | MDGA1 ectodomain 22-920, TAMRA label (Homo sapiens, UniProt Q8NFP4-1) | fluorescence polarisation | – | pH 7.5, 25 °C, NaCl 25 mM, one-site total binding fit | 0.048 |
| SRPK1 (Homo sapiens, UniProt Q96SB4) | SRSF1, about six phosphoserines (Homo sapiens, UniProt Q07955) | rapid quench flow single-turnover kinetics | – | pH 7.4, with: 32P-ATP 100 µM | 0.25 |
| {FITC-Ahx}-DFTADDLEELDTLAS-NH2 (ATRIP residues 54-68; SMILES CC(C)C[C@H](NC(=O)[C@H](CC(=O)O)NC(=O)[C@H](CC(=O)O)NC(=O)[C@H](C)NC(=O)[C@@H](NC(=O)[C@H](Cc1ccccc1)NC(=O)[C@H](CC(=O)O)NC(=O)CCCCCNC(=S)Nc1ccc2c(c1)C(=O)OC21c2ccc(O)cc2Oc2cc(O)ccc21)[C@@H](C)O)C(=O)N[C@@H](CCC(=O)O)C(=O)N[C@@H](CCC(=O)O)C(=O)N[C@@H](CC(C)C)C(=O)N[C@@H](CC(=O)O)C(=O)N[C@H](C(=O)N[C@@H](CC(C)C)C(=O)N[C@@H](C)C(=O)N[C@@H](CO)C(N)=O)[C@@H](C)O; N-terminal FITC-Ahx, C-terminal amide; FITC = O=C1OC2(c3ccc(O)cc3Oc3cc(O)ccc32)c2ccc(NC(=S)*)cc21; Ahx = NCCCCCC(=O)O) | RPA1 | NMR titration | peptide | – | 15.2 |

Repeated from above:
| Molecule | partner | test | system | setting | Kd [µM] |
| --- | --- | --- | --- | --- | --- |
| B1 (Tiam1 PH-CC-Ex domain) | T1, BCR GAP domain | BLI | – | – | 0.287 |
| B4 (asprosin mature) | PTPRD extracellular domain 21-1265, RED-tris-NTA dye label (UniProt P23468) | MST | – | – | 0.0042 |
| B6 (Nlgn2 43-612) | MDGA1 ectodomain 22-920, TAMRA label (Homo sapiens, UniProt Q8NFP4-1) | fluorescence polarisation | – | pH 7.5, 25 °C, NaCl 25 mM, one-site total binding fit | 0.048 |
